# Assay results of several laboratories.
# Each numbered part is a random draw from the data of one study; scales do not carry over between parts. Positions count from the first letter of the parent shown.

# Sample 1 — target: DBP, bZIP domain (human); method: DHFR protein complementation; matrix: yeast; reference: wild-type JUN-FOS pair; reading: higher = stronger binding
# Notes: single substitutions, most at no-binding floor
# Parent: JUN, bZIP domain (human); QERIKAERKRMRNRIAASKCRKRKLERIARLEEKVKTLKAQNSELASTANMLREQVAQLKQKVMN; partner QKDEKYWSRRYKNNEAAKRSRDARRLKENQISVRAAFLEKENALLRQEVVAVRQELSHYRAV
Substitution,binding fitness [natural log]
E32A,-1.3
L45Q,-1.46
Q41W,-1.42
Q55G,-1.44
A49T,-1.55
Q41I,-1.52
L52S,-1.49
Q41V,-1.38
R30L,-1.36
M51A,-1.29
S47K,-1.59
A46Y,-1.54
N42M,-1.39
E54H,-1.4
K39A,-1.42
R53C,-1.48
E54T,-1.39
Q41C,-1.36
M51G,-1.52
A40R,-1.49
E54A,-1.37
A57K,-1.55
E33R,-1.51
K36W,-1.52
A57Q,-1.2

# Sample 2 — target: CCND3, cyclin fold, Cln2 fusion (human); method: yeast growth competition, sequencing; matrix: yeast; notes: weak parent motif; reference: not given; reading: higher = stronger binding
# Parent: PKN2 docking peptide (human); VSAVQKLDFSDTM
Substitution,normalised enrichment score
S2F,0.0641
F9Q,0.0745
K6D,0.113
S10E,0.234
S10D,0.127
A3C,0.0923
K6Q,0.145
S2E,0.0642
D8F,0.108
S2W,0.11
M13T,0.158
A3T,0.0873
K6S,0.142
S2G,0.0819
F9M,0.0936
A3H,0.0869
V1Y,0.132
S10W,0.0965
F9K,0.176
L7M,0.119
V1M,0.113
S10A,0.0701
D11P,0.138

# Sample 3 — method: RNA Bind-n-Seq; form: RNA; matrix: in vitro; tested at: 365 nM; reference: no-protein control; reading: higher = stronger binding
# Target: RNA binding protein fox-1 homolog 2, RRM domain, GST-SBP tag (RBFOX2, Homo sapiens, UniProt O43251-10, residues 100-194)
# Notes: natural RNA segment, single round, ends assumed
# All sequences stand within: GGGAGUUCUACAGUCCGACGAUC … UGGAAUUCUCGGGUGCCAA
# Target sequence (chain): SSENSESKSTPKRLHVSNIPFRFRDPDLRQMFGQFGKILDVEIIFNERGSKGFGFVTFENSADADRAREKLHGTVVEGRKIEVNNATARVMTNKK
Oligonucleotide,RBNS enrichment (R)
GCGGGAGCAACCACAAUCAAACCUACAGGGCAGGCCCUAGGGUUUGUUAUCCCACGUUCAGGCCAGGAUUAGUACAGAGCUGGUUAAGGCUUUCAUUUCACUUCAGAUUC,0.532
GGCAAAGCUUUGAGUGCCCAGAAGGGAAAGCUGUACCAGUUGCUAACCUGUCUUGUUUCAGGAGCCACCAUGUUUUUUUUUCAGUGUUAACAACAAUCAUGAUAAUUAAA,0.801
GGUCUAUAUUCUGUAUGUGGAUAACAGACCCAAUCAGGAAACGAGCCUUAUGUGUGUCGUUAACAUUUAUAUUUUCAUUCAAAAUAUGUAUUCAGUGUUUAUUUCCUUAA,0.903
UCUUACAAGUUCCUUGUUAAUGCACAAGCGUAGGGACCCUUGUACAGACUCUGGCAGUAUUGAUGAGCCUGGCGCUGUUUGCUUUGGUGCAGCCUCCACAGUGCGCGUUC,0.817
UCACUGCAGAAGCAACUCCUGCACUCGCCCAGACUUUACCAGGGGGCAAAGAUGCCCAUGACGACAUAGUCACCAGUGAAGUGGAUUUUACCUCAGAAGCAGUGACAGCC,0.208
CUGGGGAACAGCUCUCGGUGUUGACUGCAUUGUUGCAGUCUCCCAAGUCUGCCCUGUUUUUUUAAUUCUUUAUUCUUGUGACAGCAUUUUUGGACGUUGGAAGAGCUCAG,0.43
CCGAGCCAGCAGCUGAAGUCUCUUUUUCUUCCUCUCGGCUGGAAGAACAUCAAGAUACCUUUGCGUGGAUCAAGCUUGUGUACUUGACCGUUUUUAUAUUACUUUUGUAA,0.339
UAGAUGAAUAGUUGAGGCACAUCCUUCAGAGAAGAGGGAGGGGCUGCUUGGAAAGAUGGCUCUCAGCAAAAUCUGUUUGUCUUACACGUCUCUCAGGGAAAAAACAUGCA,14
AUUGUCCUUCCCUGAGGCUCCAUUGCUGCUUGGUGGCCAUUCUCUGCCUUUUUACAGUCACCUGAACAAUGACCCAUCAUCUCUUGCUUGCUUGAAAUCUUGCUGAAAUG,0.597
GCACCUGAACCACUGUGGCCUUCUCAGCCUACAGCAGUGUGGUCUCUUACAUGGCCACAAAGGGACACACAGUGACAAAAGGCUCGGAAUGUUACAAUGGUAAAAUGAGU,1.94
GAUCUCAGCCUAGCGAUGCCGCUGGCCAGACCGUGACCAUGCUGCCAGUGUGCUCGCCAUGAGCUGGGUCAGGGCUGGGGAGUUGUGCAGGCUGGGGUGACCCUUCCCCC,0.429
CAGAAUAUAGGGUUGUUCUUUGGGAAAAAGAGUAUAAGAACAUAAUUUCUUUGUCCUAGACUUUACAAAUUUUUCAAAACUGUAACUUUAUUUUAAACUUGUGUAUCACA,0.467

# Sample 4 — method: DHFR PCA, deep sequencing; matrix: yeast; added: (+)-ABA 2500 µM; reference: wild-type fitted maximum; reading: higher = stronger binding
# Target: ABI1, truncated, D143A, DHFR fusion (Arabidopsis thaliana)
# Notes: methotrexate growth selection, single substitutions
# Parent: PYL1, truncated, DHFR fusion (Arabidopsis thaliana); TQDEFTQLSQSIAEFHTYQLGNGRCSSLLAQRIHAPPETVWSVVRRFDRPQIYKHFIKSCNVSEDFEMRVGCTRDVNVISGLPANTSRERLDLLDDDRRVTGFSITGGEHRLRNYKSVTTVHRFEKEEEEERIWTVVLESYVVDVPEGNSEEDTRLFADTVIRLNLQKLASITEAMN; partner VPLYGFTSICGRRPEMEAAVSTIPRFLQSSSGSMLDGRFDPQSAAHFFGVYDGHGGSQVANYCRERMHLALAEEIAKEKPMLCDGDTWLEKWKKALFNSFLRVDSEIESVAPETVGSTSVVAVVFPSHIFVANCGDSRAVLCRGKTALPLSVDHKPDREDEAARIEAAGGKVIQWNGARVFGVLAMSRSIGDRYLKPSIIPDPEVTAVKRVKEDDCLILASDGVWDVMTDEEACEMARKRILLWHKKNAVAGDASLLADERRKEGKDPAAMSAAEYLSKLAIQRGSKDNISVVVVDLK
Substitution,relative binding score [%]
E127D,102
E129W,93.4
Q19N,100
G107C,92.6
V145N,83
P50M,16.4
R113M,105
A170E,86.3
S26I,87.6
K58E,93.7
G71M,74.8
T86R,96
F124D,108
N61P,83.5
N149F,47.6
R98H,109
K116P,-6.69
G108E,74.3
R24I,95.6
S171M,89.7
T39D,89.3
M68V,91.6
R155V,95
R90C,88.7

# Sample 5 — method: protein-binding microarray; form: double-stranded DNA, one strand shown; matrix: in vitro; tested at: 2200 nM top; notes: 60-bp whole probe; added: salmon DNA 0.4 mg/ml; reference: random background probes; reading: higher = stronger binding; all sequences stand within: GCCTAGCAC … GTCTTGATTCGCTTGACGCTGCTG
# Target: Interferon regulatory factor 7, full length, phosphomimetic (IRF7, Homo sapiens, UniProt Q92985, residues 1-503, S471D/S472D/S475D/S476D/S477D/S483D/S484D/S487D)
# Residues (chain): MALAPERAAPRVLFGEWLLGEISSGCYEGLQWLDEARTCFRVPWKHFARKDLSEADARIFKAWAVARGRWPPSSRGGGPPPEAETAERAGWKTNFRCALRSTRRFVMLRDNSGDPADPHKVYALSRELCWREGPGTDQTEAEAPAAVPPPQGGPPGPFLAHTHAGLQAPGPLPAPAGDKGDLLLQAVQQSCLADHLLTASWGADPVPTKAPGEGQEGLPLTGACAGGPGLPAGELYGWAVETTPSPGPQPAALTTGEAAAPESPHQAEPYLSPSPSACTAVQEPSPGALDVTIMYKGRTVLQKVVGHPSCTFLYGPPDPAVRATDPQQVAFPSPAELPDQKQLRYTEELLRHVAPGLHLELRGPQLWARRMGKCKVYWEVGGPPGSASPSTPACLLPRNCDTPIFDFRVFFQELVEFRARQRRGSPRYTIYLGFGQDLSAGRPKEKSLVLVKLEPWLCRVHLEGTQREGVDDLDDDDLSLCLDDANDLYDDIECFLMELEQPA
Oligonucleotide,fitted relative affinity [z-score]
TTAGACCTGGGGTTTCGATTAGTGCTA,2.09
GACCATTTCAGTTCCGAGACGTGCTAG,1.83
CAGGTTTTGCTAAGTCAACTGGTGCTA,0.564
GACGATTTCGGGATTGGAGACGTGCTA,2.14
TCATTTATCCCTGACAGACTGTGCTAG,1.48
GACGGTTCCGGTTTCGGGCCGTGCTAG,4.64
TCAATTCTCTGCTTCTGACTGTGCTAG,1.47
GGTGCTCTGCAGCTCAGGCAGTGCTAG,-0.71
AGGAATTTCCCACTTTCAGTGTGCTAG,2.09
GACGGTTTCGACAATCGGGACGTGCTA,2.01
GATAATTTTTTTCTAAGTAAGTGCTAG,-0.226
AGATACCTTTAACAGTGCCTGTGCTAG,0.182
TTACAGATGTTTTTCATTTTGTGCTAG,2.27
GACGGACTGAGGTATCGGGACGTGCTA,-0.846
TTAGGACTGGACCCTGGGTTAGTGCTA,-0.917
GACGGTATCGGGCCTGGGGACGTGCTA,-0.827
TTGATAATTTTTTTCTAAGTGTGCTAG,0.00904
TTAGGAGTGGTACATGAAGCGTGCTAG,-0.741
GACGGTATCGGTTTCGGGATGTGCTAG,4.65
TTGGGTATCCTACTGCTTTAGTGCTAG,0.682
TGTCTTCCCCTCTCTTTCCAAGTGCTA,2.41
GACGGTATCGACAGTGGGGACGTGCTA,-0.395
TTAGGTATCCTTATCCATTAGTGCTAG,0.731
GACGGTCTCGGTATCAGGACGTGCTAG,0.172
GACGGTCTCTGTATCGGGACGTGCTAG,0.323

# Sample 6 — method: protein binding microarray; form: double-stranded DNA, one strand shown; matrix: in vitro; tested at: not given; reference: not given; reading: higher = stronger binding
# Target: Histone acetyltransferase KAT6A, winged helix 2, GST fusion (KAT6A, Homo sapiens, UniProt Q92794, residues 85-181)
# Notes: 8-mer, flanks averaged, mean of 2 arrays, mostly near background
# Construct (chain): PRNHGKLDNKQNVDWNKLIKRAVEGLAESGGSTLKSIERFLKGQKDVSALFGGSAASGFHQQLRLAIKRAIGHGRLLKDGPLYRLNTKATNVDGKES
Oligonucleotide,E-score
CTTCGATC,0.0705
CAGCGTAC,-0.0235
TGTACACA,0.00296
AGACCCAT,-0.212
ACAAGCCC,-0.258
GCTGACCA,0.103
CGTTACGC,-0.036
GATTTGGC,-0.0664
ATTTTCCA,0.0732
TAGGCGAA,-0.0505
AAGCACCC,0.0977
AGCCATCA,-0.0513
AAGGGAGC,0.0236
AATAGAAC,0.0251
CAGTACCC,-0.0406
ATAAACTG,0.146
CTGTATGC,0.02
GCATCACA,0.117
GGCGACAA,0.136
CTAGCTAA,0.0682
GCGGTTCA,0.011
GGTAGCGA,-0.0652
GGTTAGCA,-0.037
AAGTGGGA,0.1

# Further values, each from its own experiment
Molecule,target,assay,test system,conditions,scale,measurement,result
"PhoQ, residues 284 288 289 292 302 303 AEGLLW","PhoP, residues 12 14 15 18 19 LHSVQ (Escherichia coli, UniProt P23836)","Sort-seq, measured: YFP reporter",E. coli,"PhoQ-PhoP variant library, added: 10 µM Mg2+","reference: high Mg2+ state, higher = stronger signaling",fold induction,1.47

# A few entries again (sample 1):
Substitution,binding fitness [natural log]
L45Q,-1.46
E54T,-1.39
E54H,-1.4
S47K,-1.59
Q41I,-1.52
E32A,-1.3
Q41V,-1.38
K36W,-1.52
M51A,-1.29
